Assay results gathered from unrelated publications.
Compare with care: the assays were run in different laboratories. ± gives the spread as reported.

Molecule	target or system	assay	system	conditions	how to read	measurement	result
peginesatide			healthy adults	intravenous, 0.1 mg/kg single dose		subjects with adverse events	31.3%
CSCC[C@H](NC(=O)[C@H](CC(C)C)NC(=O)[C@H](Cc1c[nH]cn1)NC(=O)CNC(=O)[C@@H](NC(=O)[C@H](C)NC(=O)[C@H](Cc1c[nH]c2ccccc12)NC(=O)[C@H](CCC(N)=O)NC(=O)CCC(=O)NCCOCCOCCNC(=O)CN1CCN(CC(=O)O)CCN(CC(=O)O)CCN(CC(=O)O)CC1)C(C)C)C(N)=O			CF-1 mouse, urine and bladder	intravenous, 185 kBq, 1 h		excretion	82.2 ± 1.31%
COc1cccc2c1C(=O)c1c(O)c3c(c(O)c1C2=O)C[C@@](O)(C(=O)CO)C[C@@H]3O[C@H]1C[C@H](NC(=O)[C@H](CC(C)C)NC(=O)[C@H](C)NC(=O)[C@H](CC(C)C)NC(=O)CCNC(=O)CCC(=O)O)[C@H](O)[C@H](C)O1			mouse, E0771 tumour-bearing, heart	intravenous, 92 µmol/kg		Cmax	35.9 µM
CCN1C(=CC=CC=CC2=[N+](CCCCCC(=O)NCCCC[C@H](NC(=O)CN3CCN(CC(=O)O)CCN(CC(=O)O)CCN(CC(=O)O)CC3)C(=O)NCC(=O)NCC(=O)N[C@@H](Cc3ccc(O)cc3)C(=O)NCC(=O)N[C@H]3CSSC[C@@H]4NC(=O)CNC(=O)[C@H](C)NC(=O)[C@H](CC(C)C)NC(=O)[C@@H]5CSSC[C@@H](C(=O)NCC(N)=O)NC(=O)[C@H](Cc6ccccc6)NC(=O)CNC(=O)[C@H](CC(N)=O)NC(=O)[C@@H]6CCCN6C(=O)CNC(=O)[C@H](CSSC[C@H](NC(=O)[C@H](CO)NC(=O)[C@H]([C@@H](C)O)NC(=O)[C@@H]6CCCN6C(=O)[C@H](C)NC(=O)[C@H](Cc6c[nH]c7ccccc67)NC(=O)[C@H](CC(=O)O)NC(=O)CNC(=O)[C@H](CCCNC(=N)N)NC(=O)CNC(=O)[C@H](CCC(N)=O)NC(=O)[C@@H]6CCCN6C3=O)C(=O)N[C@@H](CO)C(=O)N[C@@H](CCC(N)=O)C(=O)N[C@@H](CC(=O)O)C(=O)N[C@@H](CO)C(=O)N[C@@H](CC(=O)O)C(=O)N5)NC(=O)[C@H](C(C)C)NC4=O)c3ccc4c(S(=O)(=O)[O-])cc(S(=O)(=O)O)cc4c3C2(C)C)C(C)(C)c2c1ccc1c(S(=O)(=O)O)cc(S(=O)(=O)O)cc21 (single isomer, unassigned) [copper-64 labelled]			nude mouse, U-87 MG xenograft, tumour	intravenous, 100 µCi, 0.5 nmol, 24 h		tissue uptake	4.57 ± 0.7 %ID/g
N=C(N)NCCC[C@@H]1NC(=O)[C@H](CCCCNC(=O)[C@H](CC(=O)O)NC(=O)[C@H](CC(=O)O)NC(=O)[C@H](CC(=O)O)NC(=O)CC[C@H](NC(=O)CCOCCOCCOCCOCCNC(=O)c2ccc(NN)nc2)C(=O)N[C@@H](CC(=O)O)C(=O)N[C@@H](CC(=O)O)C(=O)N[C@@H](CC(=O)O)C(=O)NCCCC[C@@H]2NC(=O)[C@@H](Cc3ccccc3)NC(=O)[C@H](CC(=O)O)NC(=O)CNC(=O)[C@H](CCCNC(=N)N)NC2=O)NC(=O)[C@@H](Cc2ccccc2)NC(=O)[C@H](CC(=O)O)NC(=O)CNC1=O [technetium-99m labelled]		γ-counting	female athymic nude mice, U-87 MG xenograft, liver	intravenous, 0.5 h		tissue uptake	3.95 ± 0.11 %ID/g
melittin		CD titration	POPC 90% POPG 10% vesicles	pH 7.0, 50 °C		free energy of partitioning	-6.7 kcal/mol
[123I]c1cncc(OC[C@@H]2CCN2)c1		SPECT	human, parietal lobe	intravenous bolus, 8.6 mCi	baseline: tissue over plasma	tissue/plasma ratio	11.8
COc1cccc2c1C(=O)c1c(O)c3c(c(O)c1C2=O)C[C@@](O)(C(=O)CO)C[C@@H]3O[C@H]1C[C@H](NC(=O)[C@@H]2CCCN2C(=O)CNC(=O)[C@H](CC(C)C)NC(=O)[C@H](C)NC(=O)CP(=O)(O)O)[C@H](O)[C@H](C)O1			mouse, E0771 tumour-bearing, tumor	intravenous, 92 µmol/kg		Cmax	25.2 µM
N=C(N)NCCC[C@@H]1NC(=O)[C@H](CCCCNC(=O)CNC(=O)CNC(=O)CNC(=O)CC[C@H](NC(=O)CCOCCOCCOCCOCCNC(=O)c2ccc(NN)nc2)C(=O)NCC(=O)NCC(=O)NCC(=O)NCCCC[C@@H]2NC(=O)[C@@H](Cc3ccccc3)NC(=O)[C@H](CC(=O)O)NC(=O)CNC(=O)[C@H](CCCNC(=N)N)NC2=O)NC(=O)[C@@H](Cc2ccccc2)NC(=O)[C@H](CC(=O)O)NC(=O)CNC1=O [technetium-99m labelled]		γ-counting	female athymic nude mice, U-87 MG xenograft, liver	intravenous, 2 h		tissue uptake	2.22 ± 0.3 %ID/g
CCCCCCCCCCCCCCCC(=O)N[C@H](C(=O)N[C@H](C(=O)N[C@H](C(=O)N[C@@H](CSSCCOP(=O)(O)CO[C@H](C)Cn1cnc2c(N)ncnc21)C(=O)N[C@@H](CCC(=O)O)C(=O)O)C(C)C)C(C)C)C(C)C			PBS	100 µM, 3 days, 37 °C, without dithiothreitol		stability	stable
CN[C@@](C)(C[18F])C(=O)O	MDA-MB-468 tumour model		host not given, liver	15 min, tumour-bearing		tracer uptake	6.9 %ID/g

Excerpt of the above:
Molecule	target or system	assay	system	conditions	how to read	measurement	result
COc1cccc2c1C(=O)c1c(O)c3c(c(O)c1C2=O)C[C@@](O)(C(=O)CO)C[C@@H]3O[C@H]1C[C@H](NC(=O)[C@H](CC(C)C)NC(=O)[C@H](C)NC(=O)[C@H](CC(C)C)NC(=O)CCNC(=O)CCC(=O)O)[C@H](O)[C@H](C)O1			mouse, E0771 tumour-bearing, heart	intravenous, 92 µmol/kg		Cmax	35.9 µM
